Assay results from different studies.
± marks the error that the study gave. Converted amounts (≈) assume the structure as drawn.
Chain of UniProt P20309 (whole entry, looked up): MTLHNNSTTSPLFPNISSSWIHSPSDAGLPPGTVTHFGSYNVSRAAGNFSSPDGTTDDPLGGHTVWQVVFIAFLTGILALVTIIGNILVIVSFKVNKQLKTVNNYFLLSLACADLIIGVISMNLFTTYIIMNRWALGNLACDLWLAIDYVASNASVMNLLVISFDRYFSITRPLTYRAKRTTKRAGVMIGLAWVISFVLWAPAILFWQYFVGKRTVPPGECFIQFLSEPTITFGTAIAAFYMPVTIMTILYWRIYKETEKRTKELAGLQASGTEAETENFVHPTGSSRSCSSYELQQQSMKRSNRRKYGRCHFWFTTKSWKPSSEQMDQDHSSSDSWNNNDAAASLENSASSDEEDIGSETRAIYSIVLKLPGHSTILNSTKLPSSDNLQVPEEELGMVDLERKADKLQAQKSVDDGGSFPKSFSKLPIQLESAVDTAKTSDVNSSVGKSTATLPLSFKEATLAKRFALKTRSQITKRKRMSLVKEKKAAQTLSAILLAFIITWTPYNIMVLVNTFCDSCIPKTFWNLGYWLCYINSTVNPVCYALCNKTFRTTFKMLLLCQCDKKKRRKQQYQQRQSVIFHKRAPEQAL

| Compound | target or system | test | system | setting | scale | endpoint | result |
| --- | --- | --- | --- | --- | --- | --- | --- |
| COc1c2c(cc3oc(=O)cc(-c4ccc(O)cc4)c13)C(=O)c1cc(C)cc(O)c1C2=O | Klebsiella aerogenes |  |  | 100 µg/disc |  | inhibition zone diameter | < 8 mm |
| [64Cu+2].c1cnc(CNCc2ccc(CN3CCCN4CCNCCCN(CC4)CC3)cc2)nc1 | CXCR4 |  | NOD/SCID mouse, U87 and U87-stb-CXCR4 xenografts, spleen | iv, 90 min, ex vivo |  | tissue uptake | 15 ± 2.15 %ID/g |
| Cc1cc(-c2ccc(NC(=O)[C@H](CCCCNC(=O)CCOCCOCCC(=O)N[C@H](Cc3ccccc3)C(=O)N[C@H]3CSSC[C@@H](C(=O)N[C@H](C(=O)O)[C@@H](C)O)NC(=O)[C@H]([C@@H](C)O)NC(=O)[C@H](CCCCN)NC(=O)[C@@H](Cc4c[nH]c5ccccc45)NC(=O)[C@H](Cc4ccc(O)cc4)NC3=O)NC(=O)CN3CCN(CC(=O)O)CCN(CC(=O)O)CCN(CC(=O)O)CC3)c(C)c2)ccc1N=Nc1ccc2c(S(=O)(=O)O)cc(S(=O)(=O)O)c(N)c2c1O [lutetium-177 labelled] |  |  | metastatic NET patients, lymph node metastases |  |  | absorbed dose | 1.69 ± 0.64 Gy/GBq |
| CN(C)c1cc(CNC(C)(C)C)c(O)c2c1C[C@H]1C[C@H]3[C@H](N(C)C)C(O)=C(C(N)=O)C(=O)[C@@]3(O)C(O)=C1C2=O | Enterococcus faecalis |  | JH2-2(pMV158), Tet L efflux |  |  | MIC | 8 µg/mL (≈ 14.7 µM) |
| N=C(N)NCCC[C@@H]1NC(=O)[C@H](CCCCNC(=O)CNC(=O)CNC(=O)CNC(=O)CC[C@H](NC(=O)CNC(=O)CNC(=O)CNC(=O)CC[C@H](NC(=O)CN2CCN(CC(=O)O)CCN(CC(=O)O)CCN(CC(=O)O)CC2)C(=O)NCC(=O)NCC(=O)NCC(=O)N[C@@H](CCC(=O)NCC(=O)NCC(=O)NCC(=O)NCCCC[C@@H]2NC(=O)[C@@H](Cc3ccccc3)NC(=O)[C@H](CC(=O)O)NC(=O)CNC(=O)[C@H](CCCNC(=N)N)NC2=O)C(=O)NCC(=O)NCC(=O)NCC(=O)NCCCC[C@@H]2NC(=O)[C@@H](Cc3ccccc3)NC(=O)[C@H](CC(=O)O)NC(=O)CNC(=O)[C@H](CCCNC(=N)N)NC2=O)C(=O)NCC(=O)NCC(=O)NCC(=O)NCCCC[C@@H]2NC(=O)[C@@H](Cc3ccccc3)NC(=O)[C@H](CC(=O)O)NC(=O)CNC(=O)[C@H](CCCNC(=N)N)NC2=O)NC(=O)[C@@H](Cc2ccccc2)NC(=O)[C@H](CC(=O)O)NC(=O)CNC1=O [indium-111 labelled] |  |  | female athymic nu/nu mice, liver | intravenous, 4 h |  | tissue uptake | 3.05 ± 0.14 %ID/g |
| CC(=O)[O-].O.O.[O-]c1ccc(Br)cc1C=NCCN1CCOCC1.[Zn+2] | Mucor indicus |  |  | 20 µL of 100 µM per disc |  | inhibition zone diameter | 29 mm |
| CCOC(=O)C(C)NC(=O)CN1C(=O)S/C(=C\c2ccc(F)cc2)C1=O (stereo not drawn) | Leishmania donovani | parasite growth |  | 72 h, intracellular, amastigote |  | IC50 | > 10 µM |
| CS(C)=O.CS(C)=O.[Cl][Cu][Cl].c1ccc(-c2nnc(-c3ccc4c(c3)OCO4)[nH]2)nc1 | T24 | FITC-DEVD-FMK flow cytometry |  | 5.3 µM, 24 h |  | activated caspase-3 cells | 31.5% |
| Cc1cc2[nH]c(C(=O)NCc3cccs3)c(CN3CCCCC3)c2s1 | Giardia duodenalis | parasite growth |  | 48 h |  | IC50 | > 10 µM |
| NCC(=O)N[C@H](Cc1ccccc1)C(=O)N[C@@H](Cc1ccccc1)C(N)=O | Aplysia | feeding network activity, electrophysiology | buccal and cerebral ganglia | concentration not given |  | activity | inactive |
| CC[C@H]1[C@@H](O)[C@@H]2[C@H](CC[C@]3(C)[C@@H]([C@H](C)CCOS(=O)(=O)[O-])CC[C@@H]23)[C@@]2(C)CC[C@@H](O)C[C@@H]12.[Na+] |  | histology | ob/ob NASH mouse model, liver | oral, 10 mg/kg once daily, 8 weeks | direction not given | NAFLD activity score | 3 ± 0.3 |
| O=C(CCC(=O)c1ccccc1)NCCN(CC(=O)Nc1ccc(I)cc1)C(=O)CCc1cn(Cc2ccccc2)nn1 | Bacillus subtilis, Staphylococcus aureus | MIC | including MRSA | up to 512 µg/mL |  | antibacterial activity | inactive |
| COc1ccc(CCCN[C@H]2CCC[C@@H]2CN[C@@H]2CCC[C@H]2CNCCCCN[C@@H]2CCC[C@H]2CN)cc1 | Amine oxidase [flavin-containing] B (MAOB, Homo sapiens, UniProt P27338) | enzyme activity, inhibitor |  |  |  | Ki | > 500 µM |
| CC/C(=C\c1ccc(OCC(=O)NC(C(=O)N2CCOCC2)c2ccccc2)cc1)[N+](=O)[O-] (stereo not drawn) | Leishmania donovani |  | macrophages, intracellular amastigotes | 12.5 µM, 72 h |  | inhibition | 63.2% |
| c1ccc(CN2CCOCCOCCN(CCCCCCCCN3CCOCCOCCN(CCCCCCCCN4CCOCCOCCN(Cc5ccccc5)CCOCCOCC4)CCOCCOCC3)CCOCCOCC2)cc1 | Escherichia coli | checkerboard | tetracycline-resistant | with: tetracycline |  | concentration restoring tetracycline activity | 8 µM |
| O=Cc1c(O)ccc2ccccc12 | HUVEC | RNA sequencing |  | 75 µM, 24 h, ≥2.5-fold change | relative to: vehicle | differentially expressed genes | 457 genes |
| CC1(CCCCCCCCCCOCCCOP(=O)(O)CO[C@H](CO)Cn2ccc(N)nc2=O)COC1 | human alphaherpesvirus 2 |  | HFF, G |  | relative to: CC50 over EC50 | selectivity index | > 98 |
| CC/C(=C\c1ccc(OCC(=O)NC(C(=O)N2CCSCC2)c2ccccc2)cc1)[N+](=O)[O-] (stereo not drawn) | Leishmania donovani |  | macrophages, intracellular amastigotes | 3.125 µM, 72 h |  | inhibition | 63.2% |
| N=C(N)NCCC[C@@H]1NC(=O)[C@H](CCCCNC(=O)CNC(=O)CNC(=O)CNC(=O)CC[C@H](NC(=O)CNC(=O)CNC(=O)CNC(=O)CN2CCN(CC(=O)O)CCN(CC(=O)O)CCN(CC(=O)O)CC2)C(=O)NCC(=O)NCC(=O)NCC(=O)NCCCC[C@@H]2NC(=O)[C@@H](Cc3ccccc3)NC(=O)[C@H](CC(=O)O)NC(=O)CNC(=O)[C@H](CCCNC(=N)N)NC2=O)NC(=O)[C@@H](Cc2ccccc2)NC(=O)[C@H](CC(=O)O)NC(=O)CNC1=O [indium-111 labelled] |  |  | female athymic nu/nu mice, liver | intravenous, 72 h |  | tissue uptake | 0.85 ± 0.09 %ID/g |
| COC(=O)CCC(NC(=O)C1OC(OC2C(OC3CCC4(C)C(CCC5(C)C4C(=O)C=C4C6CC(C)(C(=O)NC(CCC(=O)OC)C(=O)OC)CCC6(C)CCC45C)C3(C)C)OC(C(=O)NC(CCC(=O)OC)C(=O)OC)C(O)C2O)C(O)C(O)C1O)C(=O)OC (stereo not drawn) | Epstein-Barr virus | viral replication, qPCR of genome copies | Raji | concentration not given |  | antiviral activity | inhibited |
| COc1cc(OC)c2c(c1)C(=O)c1cc3oc(=O)cc(C)c3c(O)c1C2=O | Klebsiella aerogenes |  |  | 100 µg/disc |  | inhibition zone diameter | < 8 mm |

| Compound | target or system | test | system | setting | scale | endpoint | result |
| --- | --- | --- | --- | --- | --- | --- | --- |
| CN[C@H](CC(C)C)C(=O)N[C@H]1C(=O)N[C@@H](CC(N)=O)C(=O)N[C@H]2C(=O)N[C@H]3C(=O)N[C@H](C(=O)N[C@H](C(=O)O)c4cc(O)cc(O)c4-c4cc3ccc4O)[C@H](O)c3ccc(c(Cl)c3)Oc3cc2cc(c3O[C@@H]2O[C@H](CO)[C@@H](O)[C@H](O)[C@H]2O[C@H]2C[C@](C)(NCc3ccc(C(=O)OCCCCCCN(Cc4ccccn4)Cc4ccccn4)cc3)[C@H](O)[C@H](C)O2)Oc2ccc(cc2Cl)[C@H]1O | Bacillus subtilis | growth retardation | 168 |  |  | physiologically effective concentration | 0.16 µM |
| O=c1c(-c2nc3ccccc3s2)cc2c(n1NS(=O)(=O)c1ccc(Cl)cc1)CCCCCC2 | hepatitis C virus |  | Huh7.5, genotype 4 ED-43 replicon |  | relative to: CC50 over IC50 | selectivity index | 2.79 |
| CC(C)CNCc1cc(N(C)C)c2c(c1O)C(=O)C1=C(O)[C@]3(O)C(=O)C(C(N)=O)=C(O)[C@@H](N(C)C)[C@@H]3C[C@@H]1C2 | Enterococcus faecalis | microbial growth, broth dilution |  |  |  | MIC | 1 µg/mL (≈ 1.84 µM) |
| Cc1cc2[nH]c(C(=O)Nc3cc(F)ccc3F)c(CN3CCCCC3)c2s1 | Giardia duodenalis | parasite growth |  | 48 h |  | IC50 | > 10 µM |
| CCOC(=O)C(CC)NC(=O)CN1C(=O)S/C(=C\c2ccc(OC)cc2)C1=O (stereo not drawn) | Leishmania major | parasite growth, resazurin |  | promastigote |  | IC50 | > 100 µM |
| CN(C)c1cc(CNCCC(C)(C)C)c(O)c2c1C[C@H]1C[C@H]3[C@H](N(C)C)C(O)=C(C(N)=O)C(=O)[C@@]3(O)C(O)=C1C2=O | Enterococcus faecalis | microbial growth, broth dilution |  |  |  | MIC | 1 µg/mL (≈ 1.75 µM) |
| CCOC(=O)C(NC(=O)CN1C(=O)/C(=C/c2ccc3c(c2)OCO3)SC1=S)C(C)C (stereo not drawn) | Leishmania major | parasite growth |  | 24 h, intracellular, amastigote |  | IC50 | > 10 µM |
| c1ccc(-c2nc(-c3ccc4ccccc4c3)c[nH]2)cc1 | Schistosoma mansoni |  | adult male worms | 5 µM |  | worm killing | 0% |
| CCCC[C@H](NC(=O)CNC(=O)CNC(=O)CN1CCN(CC(=O)O)CCN(CC(=O)O)CC1)C(=O)N[C@H]1CC(=O)NCCCC[C@@H](C(N)=O)NC(=O)[C@H](Cc2c[nH]c3ccccc23)NC(=O)[C@H](CCCNC(=N)N)NC(=O)[C@@H](Cc2ccccc2)NC(=O)[C@H](Cc2c[nH]cn2)NC1=O [technetium-99m labelled] |  |  | C57 mouse, spleen | iv, 0.037 MBq, 0.5 h |  | tissue uptake | 0.76 ± 0.48 %ID/g |
| CCOC(=O)CNC(=O)CN1C(=O)S/C(=C\c2ccc(OC)c(O)c2)C1=O | Leishmania major | parasite growth |  | 24 h, intracellular, amastigote |  | IC50 | 9.99 µM |
| CN(C)c1cc(CNCc2ccco2)c(O)c2c1C[C@H]1C[C@H]3[C@H](N(C)C)C(O)=C(C(N)=O)C(=O)[C@@]3(O)C(O)=C1C2=O | Enterococcus faecalis | microbial growth, broth dilution |  |  |  | MIC | 1 µg/mL (≈ 1.76 µM) |
| Oc1ccccc1/C=N/NC(=S)Nc1cc(C(F)(F)F)cc(C(F)(F)F)c1 | Nakaseomyces glabratus |  | ATCC 28226 | 0.5 µg/mL |  | biofilm formation inhibition | ~15% |
| NCc1cc(C(=O)NCCN2CCC(OC(=O)C(c3ccccc3)c3ccccc3)CC2)cc(C(=O)NCCN2CCN(CCCCC3CCN(CC(=O)N4c5ccccc5NC(=O)c5ccccc54)CC3)CC2)c1 | Muscarinic acetylcholine receptor M3 (CHRM3, Homo sapiens, UniProt P20309) | ligand displacement, radioligand |  |  |  | Ki | 0.0631 µM |
| CSc1ccccc1NC(=O)c1[nH]c2cc(C)sc2c1CN1CCOCC1 | Giardia duodenalis | parasite growth |  | 48 h |  | IC50 | 0.94 µM |
| CCOC(=O)C(NC(=O)CN1C(=O)/C(=C/c2ccc([N+](=O)[O-])cc2)SC1=S)C(C)C (stereo not drawn) | Leishmania major | parasite growth |  | 72 h, intracellular, amastigote |  | IC50 | > 10 µM |
| CC(C)=CCc1cc(-c2coc3cc(O)c(CC=C(C)C)c(O)c3c2=O)ccc1O | Enterococcus faecalis |  | ATCC 29212 | concentration not given |  | antibacterial activity | inactive |
| COc1c2c(cc3oc(=O)cc(C)c13)C(=O)c1cc(C)cc(O)c1C2=O | Klebsiella aerogenes | microbial growth, disc diffusion |  | 100 µg/disc |  | inhibition zone | 12 mm |
| Cc1cc2[nH]c(C(=O)NCCCN3CCOCC3)c(CN(C)C)c2s1 | Giardia duodenalis | parasite growth |  | 48 h |  | IC50 | > 10 µM |
| [64Cu+2].c1ccc(CNCc2ccc(CN3CCCN4CCNCCCN(CC4)CC3)cc2)nc1 | CXCR4 |  | NOD/SCID mouse, U87 and U87-stb-CXCR4 xenografts, kidney | iv, 240 min, ex vivo |  | tissue uptake | 35.4 ± 4.75 %ID/g |
| CCOC(=O)C(NC(=O)CN1C(=O)N/C(=C\c2ccc3c(c2)OCO3)C1=O)C(C)C (stereo not drawn) | Leishmania donovani | parasite growth, resazurin |  | promastigote |  | IC50 | > 100 µM |
| CC1(CCCCCCCCCCCCCCOCCCOP(=O)(O)CO[C@H](CO)Cn2ccc(N)nc2=O)COC1 | human alphaherpesvirus 3 |  | HFF, Ellen |  | relative to: CC50 over EC50 | selectivity index | 1070 |

For quick reference, copied from above:
| Compound | target or system | test | system | setting | scale | endpoint | result |
| --- | --- | --- | --- | --- | --- | --- | --- |
| CCOC(=O)C(NC(=O)CN1C(=O)/C(=C/c2ccc3c(c2)OCO3)SC1=S)C(C)C (stereo not drawn) | Leishmania major | parasite growth |  | 24 h, intracellular, amastigote |  | IC50 | > 10 µM |
| CSc1ccccc1NC(=O)c1[nH]c2cc(C)sc2c1CN1CCOCC1 | Giardia duodenalis | parasite growth |  | 48 h |  | IC50 | 0.94 µM |
| Cc1cc2[nH]c(C(=O)Nc3cc(F)ccc3F)c(CN3CCCCC3)c2s1 | Giardia duodenalis | parasite growth |  | 48 h |  | IC50 | > 10 µM |
| COc1c2c(cc3oc(=O)cc(-c4ccc(O)cc4)c13)C(=O)c1cc(C)cc(O)c1C2=O | Klebsiella aerogenes |  |  | 100 µg/disc |  | inhibition zone diameter | < 8 mm |
